{"data": "Assay results of several laboratories", "note": "Every numbered part comes from another study and shows a few of its results, in no order."}
{"data": "Study 1", "target": "Histone acetyltransferase KAT6A, winged helix 2, GST fusion (KAT6A, Homo sapiens, UniProt Q92794, residues 85-181)", "technique": "protein binding microarray", "form": "double-stranded DNA, one strand shown", "medium": "in vitro", "tested at": "not given", "notes": "8-mer, flanks averaged, mean of 2 arrays, mostly near background", "relative to": "not given", "reading": "higher = stronger binding", "Target sequence (chain)": "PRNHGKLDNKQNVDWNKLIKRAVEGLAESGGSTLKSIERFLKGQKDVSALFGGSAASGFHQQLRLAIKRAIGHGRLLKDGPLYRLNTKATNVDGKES"}
{"Strand": "GTGGACAC", "E-score": 0.0747}
{"Strand": "CGCACGAG", "E-score": -0.117}
{"Strand": "ATGGAGGC", "E-score": -0.0702}
{"Strand": "CGTCCGTC", "E-score": -0.126}
{"Strand": "ACCCGGCG", "E-score": 0.126}
{"Strand": "CTCAGAAC", "E-score": 0.0236}
{"Strand": "AGCATGTG", "E-score": -0.139}
{"Strand": "CCAGGGGG", "E-score": 0.215}
{"Strand": "ATACTTCG", "E-score": 0.0271}
{"Strand": "CGCGCTAG", "E-score": -0.0207}
{"Strand": "AATACAAT", "E-score": 0.0439}
{"Strand": "ATTAGTCA", "E-score": -0.124}
{"Strand": "GGACAAAC", "E-score": 0.0558}
{"Strand": "AAGACCAA", "E-score": 0.00779}
{"Strand": "ACAGCATC", "E-score": -0.0473}
{"Strand": "AAAAGTAT", "E-score": -0.0102}
{"Strand": "AGAGGCTG", "E-score": -0.261}
{"data": "Study 2", "target": "Sal-like protein 4, full length isoform B (SALL4, Homo sapiens, UniProt Q9UJQ4-2, residues 1-616)", "technique": "universal PBM", "form": "double-stranded DNA, one strand shown", "medium": "in vitro", "tested at": "not given", "notes": "8-mer, flanks averaged, mean of replicates", "reading": "higher = stronger binding", "Construct (chain)": "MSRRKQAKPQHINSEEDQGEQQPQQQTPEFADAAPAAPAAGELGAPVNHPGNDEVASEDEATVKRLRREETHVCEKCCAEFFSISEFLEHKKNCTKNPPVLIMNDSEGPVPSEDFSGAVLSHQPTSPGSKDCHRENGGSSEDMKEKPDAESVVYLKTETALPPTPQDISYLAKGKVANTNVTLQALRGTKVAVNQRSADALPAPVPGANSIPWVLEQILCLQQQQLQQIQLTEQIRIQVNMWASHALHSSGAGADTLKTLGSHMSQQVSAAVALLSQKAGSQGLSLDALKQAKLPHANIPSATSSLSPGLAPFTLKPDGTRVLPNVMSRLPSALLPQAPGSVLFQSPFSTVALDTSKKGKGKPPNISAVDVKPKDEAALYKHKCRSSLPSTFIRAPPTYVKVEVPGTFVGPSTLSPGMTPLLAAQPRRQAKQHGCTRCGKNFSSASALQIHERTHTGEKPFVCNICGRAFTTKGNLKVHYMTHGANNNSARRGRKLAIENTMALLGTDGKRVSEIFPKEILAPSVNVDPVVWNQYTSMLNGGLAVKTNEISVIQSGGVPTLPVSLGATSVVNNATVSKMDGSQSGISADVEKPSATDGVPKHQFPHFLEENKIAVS"}
{"Strand": "CTACGCCC", "E-score": -0.258}
{"Strand": "ACTGACTG", "E-score": -0.0978}
{"Strand": "CCTACAGC", "E-score": -0.0864}
{"Strand": "AGTTAGGA", "E-score": 0.0536}
{"Strand": "AAAACCAA", "E-score": 0.208}
{"Strand": "AATCGCGG", "E-score": -0.147}
{"Strand": "TGCACCAA", "E-score": -0.136}
{"Strand": "GAGAGCCA", "E-score": -0.0717}
{"Strand": "ACTCTTAT", "E-score": 0.327}
{"Strand": "CGGTCTTC", "E-score": -0.274}
{"Strand": "CAATCTCC", "E-score": -0.0853}
{"Strand": "CGTAGAAA", "E-score": 0.157}
{"Strand": "GGCTGGGA", "E-score": -0.227}
{"Strand": "ATCACGAG", "E-score": -0.0939}
{"Strand": "ACAGGGCT", "E-score": -0.304}
{"Strand": "ACACGCGG", "E-score": -0.217}
{"Strand": "AGAACTTG", "E-score": 0.0758}
{"data": "Study 3", "target": "RNA binding protein fox-1 homolog 2, RRM domain, GST-SBP tag (RBFOX2, Homo sapiens, UniProt O43251-10, residues 100-194)", "technique": "RNA Bind-n-Seq", "form": "RNA", "medium": "in vitro", "tested at": "365 nM", "notes": "natural RNA segment, single round, ends assumed", "relative to": "no-protein control", "reading": "higher = stronger binding", "shared flanks, not repeated": "GGGAGUUCUACAGUCCGACGAUC … UGGAAUUCUCGGGUGCCAA", "Target sequence (chain)": "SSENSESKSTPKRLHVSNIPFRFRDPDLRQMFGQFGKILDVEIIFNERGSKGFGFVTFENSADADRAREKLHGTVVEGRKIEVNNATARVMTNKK"}
{"Strand": "UUGUAUUCCAAACGUGUUUACAGGUUCUCUUAAGCAAUGUUGUAUUUGCAGGCUUUUCUGAAUACCAAAUCUGCUUUUUGUAAAGCGUAAAAACAUCACAAAGUAGGUCA", "RBNS enrichment (R)": 0.32}
{"Strand": "AACAUUUGUGUUUUGGAGCUCACUUUUAGUUUUGAAACGGCCUUUGCUCGUUAUAUUGUGAUCCAGUACAUUUUAUGUUAAAUUGUUUAUCAGCCAUUUCUGUUGUGAAC", "RBNS enrichment (R)": 0.654}
{"Strand": "UCUGGAACUGCUGGUCAGGGGACUUUGUCGCCCUGUGCACUAAAGGGCCAGAUUUUCAGCAGCCAAGGACAUCCAUACCCAAGUGAAUGUGAUGGGGCUUCAAGACGUGA", "RBNS enrichment (R)": 0.87}
{"Strand": "GUUUUAUGGCCAGUGAUCCUCAAAUCCAUUGGCUGUUUGAAGACCCUGUCCUCACUUCUCCUUUUUUCAGGUGACUCUCUGCUUGGCUCUUUAUCUUACUCUUCAGCUAA", "RBNS enrichment (R)": 0.482}
{"Strand": "UUUUAGGCUUGUAGGUUUACUUCCUAGUUUCUUUAAACACACCUGAUGGUAAAGAACACAUUGAAAGUACUGCAGGUUGCAGUUGACAGUACCCACAUGGUCUGCAAAAG", "RBNS enrichment (R)": 0.372}
{"Strand": "CCUGGUUGAGAGCUAAGACAACCACCUACCAGUGCCCAUGUCCCUUCCAGCUCACCUUGAGCAGCCUCAGAUCAUCUCUGUCACUCUGGAAGGGACACCCCAGCCAGGGA", "RBNS enrichment (R)": 0.242}
{"Strand": "CGGCUCCCAUCCAGCCCUCUCAGCGUGGGGCUGUGGCUGGUCCUCACUAUUCCCCAGUCUCCCGCUGUGGGGCAGGAACAGGAAGUGACGGGAACCUUGAGGAGGAAACG", "RBNS enrichment (R)": 0.339}
{"Strand": "GAUGGUGUAGGAGAAGGCUUUCAAGAAUGACGGAAUAAGAGACCUGUUUUAAAAAGGAACUGCAGCAAUCUUUGAAAGACUUCCAAAGAAUGUUAGAGCACAGUACAUAA", "RBNS enrichment (R)": 1.15}
{"data": "Study 4", "target": "Phosphate system positive regulatory protein PHO4, full length, GST-tagged (PHO4, Saccharomyces cerevisiae, UniProt P07270, residues 1-312)", "technique": "competition protein-binding microarray", "form": "double-stranded DNA, one strand shown", "medium": "in vitro", "tested at": "2 µM", "notes": "whole 60-bp probe, lowest competitor level", "added": "Cbf1 competitor, 0.05 µM", "reading": "higher = stronger binding", "shared flanks, not repeated": "… GTCTTGATTCGCTTGACGCTGCTG", "Target sequence (chain)": "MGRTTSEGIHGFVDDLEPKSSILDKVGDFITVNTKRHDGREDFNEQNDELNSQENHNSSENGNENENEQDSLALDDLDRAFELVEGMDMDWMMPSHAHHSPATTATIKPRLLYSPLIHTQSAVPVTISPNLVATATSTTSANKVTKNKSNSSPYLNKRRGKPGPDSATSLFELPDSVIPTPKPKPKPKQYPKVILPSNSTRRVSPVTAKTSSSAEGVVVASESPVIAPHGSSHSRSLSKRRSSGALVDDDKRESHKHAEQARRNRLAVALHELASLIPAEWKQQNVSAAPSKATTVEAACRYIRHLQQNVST"}
{"Strand": "TCAATTTCGAACGGAAGCGTGCGGACTCTGAGTTTT", "fluorescence intensity [a.u.]": 8240}
{"Strand": "TGAAAGGTTCTTTGACACATGTAAAGCTCCCTAAGT", "fluorescence intensity [a.u.]": 6520}
{"Strand": "AAAGCGGTAATTTGAGCCGTGGGTGCAGATATCTAT", "fluorescence intensity [a.u.]": 5980}
{"Strand": "GCAATCCGAGCTTGACACATGGTTTCTGGAGGTCTG", "fluorescence intensity [a.u.]": 7220}
{"Strand": "CGTTAAAGGGACCAAAACGTGGGTAAGGGATGCCGC", "fluorescence intensity [a.u.]": 14500}
{"Strand": "GTCTTGTCTCATTGTGGCGTGGGTGTCCCCACTTCA", "fluorescence intensity [a.u.]": 7860}
{"Strand": "TTTAGTCGATACCAACACGTGGAACAATACTCAAAT", "fluorescence intensity [a.u.]": 19800}
{"Strand": "AGTAACCCTGCTTCACACATGAGAAACATTATCGCT", "fluorescence intensity [a.u.]": 5440}
{"Strand": "CGGATGCTGTTACTACACGTGAACCATCCGGAGAGT", "fluorescence intensity [a.u.]": 14400}
{"Strand": "CGGGGTTAAGTTTGTATGGTGGGTGGCTTGCAGCAG", "fluorescence intensity [a.u.]": 4720}
{"Strand": "GTCTTGTCTCATTGAAATGTGGGTGTCCCCACTTCA", "fluorescence intensity [a.u.]": 6050}
{"Strand": "GAACTAATATTCCGTCACGTCACTTAAGTGCAAGGT", "fluorescence intensity [a.u.]": 5340}
{"Strand": "CGGGGTTAAGTTTGCGATGTGGGTGGCTTGCAGCAG", "fluorescence intensity [a.u.]": 5020}
{"Strand": "CTTCTGTAAATTTTTCACGTGCTCTGACGCGCCCCG", "fluorescence intensity [a.u.]": 13300}
{"Strand": "ACAAAAGAACATCGGCACGCAATGTTGCTTTGACAA", "fluorescence intensity [a.u.]": 7110}
{"Strand": "CTTTCCCGATCTTGTCACAATACTTTAGCACATTTG", "fluorescence intensity [a.u.]": 4610}
{"Strand": "TGCGCAACAACTTGACGAGTGGGTGTATGTCTAGAA", "fluorescence intensity [a.u.]": 4890}
{"Strand": "GGCAGGACGGACTTCCACGTGGAACTTAGGCATTCC", "fluorescence intensity [a.u.]": 15000}
{"Strand": "ACAACAAACAAAGGCAACGTGCAAAAAACAACCATC", "fluorescence intensity [a.u.]": 13800}
{"note": "Repeated from above (study 1):"}
{"Strand": "GTGGACAC", "E-score": 0.0747}
{"Strand": "CGCGCTAG", "E-score": -0.0207}
{"Strand": "ATTAGTCA", "E-score": -0.124}
{"Strand": "AGCATGTG", "E-score": -0.139}
{"Strand": "GGACAAAC", "E-score": 0.0558}
{"Strand": "ACCCGGCG", "E-score": 0.126}
